Measured values gathered from unrelated publications.
“And” joins repeats or separate records; there may be more than shown. ± gives the spread as reported.
gag-pol integrase: Gag-Pol polyprotein, integrase (gag-pol, Human immunodeficiency virus type 1 group M subtype B, UniProt P04585)
SLC6A19: Sodium-dependent neutral amino acid transporter B(0)AT1 (SLC6A19, Homo sapiens, UniProt Q695T7)
Chain of UniProt Q695T7 (whole entry, looked up): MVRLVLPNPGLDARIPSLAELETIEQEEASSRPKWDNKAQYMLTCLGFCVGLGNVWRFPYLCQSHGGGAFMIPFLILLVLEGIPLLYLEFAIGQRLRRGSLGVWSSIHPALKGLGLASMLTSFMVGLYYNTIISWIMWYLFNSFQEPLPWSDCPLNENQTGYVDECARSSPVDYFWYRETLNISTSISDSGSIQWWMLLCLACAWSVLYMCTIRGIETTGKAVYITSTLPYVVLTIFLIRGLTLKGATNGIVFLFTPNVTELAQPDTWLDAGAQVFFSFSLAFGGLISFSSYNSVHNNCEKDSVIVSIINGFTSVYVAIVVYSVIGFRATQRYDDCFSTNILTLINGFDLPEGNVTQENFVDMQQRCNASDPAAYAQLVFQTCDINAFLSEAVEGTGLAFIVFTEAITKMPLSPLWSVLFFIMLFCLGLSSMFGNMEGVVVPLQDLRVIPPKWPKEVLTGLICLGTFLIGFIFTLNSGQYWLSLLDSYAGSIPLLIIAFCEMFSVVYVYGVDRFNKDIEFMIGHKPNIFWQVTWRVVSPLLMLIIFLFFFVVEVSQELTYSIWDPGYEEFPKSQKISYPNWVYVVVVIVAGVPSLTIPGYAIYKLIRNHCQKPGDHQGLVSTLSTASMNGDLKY
Chain of UniProt P25774 (whole entry, looked up): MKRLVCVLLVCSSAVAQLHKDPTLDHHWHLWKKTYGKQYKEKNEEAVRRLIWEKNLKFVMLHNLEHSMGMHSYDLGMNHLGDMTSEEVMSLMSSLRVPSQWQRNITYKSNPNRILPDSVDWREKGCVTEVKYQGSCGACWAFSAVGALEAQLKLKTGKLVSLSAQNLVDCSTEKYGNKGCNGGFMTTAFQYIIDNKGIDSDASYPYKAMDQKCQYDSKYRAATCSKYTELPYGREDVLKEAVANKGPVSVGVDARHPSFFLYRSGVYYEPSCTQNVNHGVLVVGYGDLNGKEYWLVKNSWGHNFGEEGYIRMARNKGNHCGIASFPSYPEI
Chain of UniProt Q9HBH9 (whole entry, looked up): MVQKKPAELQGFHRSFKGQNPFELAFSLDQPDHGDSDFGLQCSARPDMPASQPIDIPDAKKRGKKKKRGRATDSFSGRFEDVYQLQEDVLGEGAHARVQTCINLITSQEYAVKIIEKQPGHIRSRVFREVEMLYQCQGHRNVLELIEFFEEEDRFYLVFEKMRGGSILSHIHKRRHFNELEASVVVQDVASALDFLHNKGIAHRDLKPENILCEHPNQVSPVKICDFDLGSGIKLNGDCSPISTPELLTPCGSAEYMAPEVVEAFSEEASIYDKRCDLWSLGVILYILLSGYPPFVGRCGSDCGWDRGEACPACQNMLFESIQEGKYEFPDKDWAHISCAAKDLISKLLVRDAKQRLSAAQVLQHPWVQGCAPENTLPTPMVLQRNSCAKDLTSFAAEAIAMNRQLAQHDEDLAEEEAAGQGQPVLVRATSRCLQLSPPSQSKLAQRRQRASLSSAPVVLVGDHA
Chain of UniProt P06797 (whole entry, looked up): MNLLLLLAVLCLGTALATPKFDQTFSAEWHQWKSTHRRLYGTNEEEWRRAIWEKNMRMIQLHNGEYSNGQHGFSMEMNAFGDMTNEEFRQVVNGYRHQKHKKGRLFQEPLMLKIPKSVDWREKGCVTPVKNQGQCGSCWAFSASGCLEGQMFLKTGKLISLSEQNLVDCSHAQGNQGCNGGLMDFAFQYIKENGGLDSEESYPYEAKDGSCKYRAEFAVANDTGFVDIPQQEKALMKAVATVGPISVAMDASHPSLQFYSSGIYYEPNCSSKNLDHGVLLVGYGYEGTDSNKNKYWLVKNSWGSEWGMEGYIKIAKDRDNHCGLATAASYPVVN
Chain of UniProt Q9H792 (whole entry, looked up): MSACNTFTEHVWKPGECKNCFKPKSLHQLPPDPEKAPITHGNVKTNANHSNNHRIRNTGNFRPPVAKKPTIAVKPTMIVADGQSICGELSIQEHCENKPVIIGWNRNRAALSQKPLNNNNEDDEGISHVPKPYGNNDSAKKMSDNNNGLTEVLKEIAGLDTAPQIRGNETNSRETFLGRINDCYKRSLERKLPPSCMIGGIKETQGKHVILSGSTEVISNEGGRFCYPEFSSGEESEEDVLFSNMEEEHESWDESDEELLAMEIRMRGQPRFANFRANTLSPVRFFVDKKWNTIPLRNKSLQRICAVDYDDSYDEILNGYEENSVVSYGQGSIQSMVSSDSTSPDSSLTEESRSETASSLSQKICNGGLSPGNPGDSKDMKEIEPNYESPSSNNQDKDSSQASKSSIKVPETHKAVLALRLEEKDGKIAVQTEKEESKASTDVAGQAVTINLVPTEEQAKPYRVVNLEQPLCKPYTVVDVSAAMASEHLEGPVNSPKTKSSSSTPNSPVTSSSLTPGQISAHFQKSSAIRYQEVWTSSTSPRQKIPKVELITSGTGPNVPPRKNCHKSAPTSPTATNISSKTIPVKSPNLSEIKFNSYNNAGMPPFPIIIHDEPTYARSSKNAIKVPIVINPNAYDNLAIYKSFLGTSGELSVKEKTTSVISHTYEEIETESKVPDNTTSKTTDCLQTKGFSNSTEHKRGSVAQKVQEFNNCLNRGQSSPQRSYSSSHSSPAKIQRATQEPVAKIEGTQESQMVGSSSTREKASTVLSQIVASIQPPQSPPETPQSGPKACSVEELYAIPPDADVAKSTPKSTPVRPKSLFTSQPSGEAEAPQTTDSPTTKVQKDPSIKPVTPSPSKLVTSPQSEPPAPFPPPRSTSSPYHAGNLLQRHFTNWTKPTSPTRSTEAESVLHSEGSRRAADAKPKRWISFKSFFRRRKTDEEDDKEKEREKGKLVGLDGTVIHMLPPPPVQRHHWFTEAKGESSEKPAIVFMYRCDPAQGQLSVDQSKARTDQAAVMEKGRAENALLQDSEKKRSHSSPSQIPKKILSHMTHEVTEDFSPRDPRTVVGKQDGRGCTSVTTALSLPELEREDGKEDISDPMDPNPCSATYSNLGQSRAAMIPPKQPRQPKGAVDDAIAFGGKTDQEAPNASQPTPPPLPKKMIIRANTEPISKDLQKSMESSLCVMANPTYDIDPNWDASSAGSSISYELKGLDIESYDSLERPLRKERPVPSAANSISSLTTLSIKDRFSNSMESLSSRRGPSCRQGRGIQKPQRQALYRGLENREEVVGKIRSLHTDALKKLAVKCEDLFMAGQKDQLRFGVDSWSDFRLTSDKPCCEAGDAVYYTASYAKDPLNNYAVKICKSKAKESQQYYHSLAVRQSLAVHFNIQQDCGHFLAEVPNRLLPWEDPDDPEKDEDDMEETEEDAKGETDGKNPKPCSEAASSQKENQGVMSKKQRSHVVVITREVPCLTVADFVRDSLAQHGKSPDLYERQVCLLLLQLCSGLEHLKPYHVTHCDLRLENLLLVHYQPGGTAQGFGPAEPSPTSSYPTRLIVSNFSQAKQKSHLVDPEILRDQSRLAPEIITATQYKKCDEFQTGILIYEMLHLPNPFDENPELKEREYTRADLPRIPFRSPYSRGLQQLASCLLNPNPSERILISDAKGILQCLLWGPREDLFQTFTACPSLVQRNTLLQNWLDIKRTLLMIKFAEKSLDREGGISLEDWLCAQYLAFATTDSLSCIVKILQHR
Chain of UniProt O75582 (whole entry, looked up): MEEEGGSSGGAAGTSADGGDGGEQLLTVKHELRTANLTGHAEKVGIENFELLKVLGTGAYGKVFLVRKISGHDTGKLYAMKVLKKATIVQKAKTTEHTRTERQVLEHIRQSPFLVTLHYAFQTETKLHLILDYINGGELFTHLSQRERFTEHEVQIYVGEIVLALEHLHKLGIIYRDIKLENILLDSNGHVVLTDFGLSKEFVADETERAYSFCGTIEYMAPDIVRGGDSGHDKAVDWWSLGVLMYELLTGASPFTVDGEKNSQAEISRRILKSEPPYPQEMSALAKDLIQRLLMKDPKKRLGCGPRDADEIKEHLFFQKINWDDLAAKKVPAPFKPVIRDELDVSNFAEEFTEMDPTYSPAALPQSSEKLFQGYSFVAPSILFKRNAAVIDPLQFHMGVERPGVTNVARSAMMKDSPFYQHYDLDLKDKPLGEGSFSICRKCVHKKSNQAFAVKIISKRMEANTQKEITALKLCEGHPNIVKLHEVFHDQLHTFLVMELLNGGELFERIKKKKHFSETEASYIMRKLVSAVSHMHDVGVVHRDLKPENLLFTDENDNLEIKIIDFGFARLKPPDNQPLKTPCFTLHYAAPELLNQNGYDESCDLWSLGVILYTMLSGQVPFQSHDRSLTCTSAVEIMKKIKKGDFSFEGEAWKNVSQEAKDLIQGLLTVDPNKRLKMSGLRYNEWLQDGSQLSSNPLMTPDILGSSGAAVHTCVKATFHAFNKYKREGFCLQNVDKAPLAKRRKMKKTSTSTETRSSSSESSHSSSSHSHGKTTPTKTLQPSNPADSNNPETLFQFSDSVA
Chain of UniProt P51956 (whole entry, looked up): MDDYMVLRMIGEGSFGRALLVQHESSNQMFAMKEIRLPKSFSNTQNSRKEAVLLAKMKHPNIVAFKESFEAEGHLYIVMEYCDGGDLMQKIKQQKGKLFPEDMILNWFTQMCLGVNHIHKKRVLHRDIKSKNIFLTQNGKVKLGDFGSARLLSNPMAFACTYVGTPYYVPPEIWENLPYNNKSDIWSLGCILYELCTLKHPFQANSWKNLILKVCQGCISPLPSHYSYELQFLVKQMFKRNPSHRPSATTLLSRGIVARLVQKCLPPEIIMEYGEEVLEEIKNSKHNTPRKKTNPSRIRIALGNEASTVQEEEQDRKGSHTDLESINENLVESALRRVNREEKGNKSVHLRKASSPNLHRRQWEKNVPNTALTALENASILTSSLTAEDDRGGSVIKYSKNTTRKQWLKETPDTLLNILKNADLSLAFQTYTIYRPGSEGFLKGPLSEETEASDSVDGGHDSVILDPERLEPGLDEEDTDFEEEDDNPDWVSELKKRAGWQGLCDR

Structure (SMILES)	target	assay	test system	setting	how to read	remaining activity
C[C@H]1[C@H](OC(=O)CCC(=O)O)O[C@@H]2O[C@@]3(C)CC[C@H]4[C@H](C)CC[C@@H]1[C@@]24OO3	Non-structural polyprotein pORF1, RNA-dependent RNA polymerase (Hepatitis E virus genotype 1, UniProt P33424)	polymerase activity, inhibitor, colorimetric		39 µM	reference: untreated	61.1%
COc1cc(N2CCN(C)CC2)ccc1Nc1nc(N)n(C(=S)NCc2c(Cl)cccc2Cl)n1	MAP3K13 (Homo sapiens, UniProt O43283)	enzyme activity		10 µM	reference: control	7.5%
Cn1cc(-c2ccc3c(c2)OCO3)c2ccc(-c3ccncc3)nc21	gag-pol integrase	strand transfer	HIV-1	10 µM		28.7%
Cc1cc(OCC(=O)NC(C)C)cc(C)c1Cl	SLC6A19	FLIPR membrane potential	CHO-BC	30 µM, unit not given	reference: uninhibited	0.829 and 0.643 and 0.57 and 0.651 and 0.779
Cn1cc(-c2ccc(F)cc2)c2ccc(Cl)nc21	gag-pol integrase	strand transfer	HIV-1	10 µM		61.7%
NC/C(=C\F)COc1cccc(Cn2c(=S)[nH]c(=O)c3[nH]cnc32)c1	Myeloperoxidase (MPO, Homo sapiens, UniProt P05164)	chlorination activity, iodide-catalysed TMB HOCl production		10 µM	reference: control	0.566%
O=C(O)c1ccc(Nc2ncc3c(n2)-c2ccc(Cl)cc2C(c2c(F)cccc2F)=NC3)cc1	MST2(h)	kinase activity		1 µM		100%
Cc1cc(Nc2cc(N3CCN(C)CC3)nc(Sc3ccc(NC(=O)C4CC4)cc3)n2)[nH]n1	CAMK2B (Homo sapiens, UniProt Q13554)	kinase activity, KinaseProfiler		0.03 µM, species human	reference: control	107%
COc1cc(-c2cncc3c2CN(C)Cc2cc(N4CCNCC4)ccc2-3)cc(OC)c1OC	RPS6KA5 (Homo sapiens, UniProt O75582)	kinase activity		1 µM, human enzyme, with: ATP 10 µM	reference: DMSO control	114%
COc1cc(N2CCN(C)CC2)ccc1Nc1nc(N)n(C(=O)NCc2ccccc2S(=O)(=O)C(C)C)n1	HIPK4 (Homo sapiens, UniProt Q8NE63)	enzyme activity		10 µM	reference: control	15%
Cc1ccc(-c2ccc3c(-c4ccccc4)cn(C)c3n2)cc1	gag-pol integrase	strand transfer	HIV-1	10 µM		48.3%
Cc1ccc(NC(=O)c2ccc(C)c(C(F)(F)F)c2)cc1C#Cc1nn(C2CCC(O)CC2)c2ncnc(N)c12 (stereo not shown)	MLCK, human			10 µM, with: 10 µM ATP		62%
Cc1ccc(C[C@H](NC(=O)OC(C)(C)C)C(=O)NC/C=C/S(=O)(=O)c2ccccc2)cc1	Cathepsin S (CTSS, Homo sapiens, UniProt P25774)	inhibitor		5 µM, 60 min, with: Z-Phe-Arg-AMC	reference: uninhibited control	< 1%
Cc1cc(Cl)cc(C)c1OCC(=O)NC(C)C	SLC6A19	FLIPR membrane potential	CHO-BC	30 µM, unit not given	reference: uninhibited	0.932 and 0.934 and 0.925 and 0.897
C=CC(=O)N1CCC[C@@H](n2nc(-c3ccc(Oc4ccccc4)cc3)c3c(N)ncnc32)C1	FER (Homo sapiens, UniProt P16591)			10 µM		3.63%
COc1cc(F)ccc1-c1ncnc(Nc2cccc(C[S@](C)(=N)=O)c2)n1	DAPK3 (Homo sapiens, UniProt O43293)	kinase activity		10 µM, with: 10 µM ATP		102%
COc1ccc(-c2ccc3c(-c4ccccc4)cn(C)c3n2)cc1	gag-pol integrase	strand transfer	HIV-1	10 µM		60.7%
COc1cc(Nc2ncc3c(n2)-c2ccc(Cl)cc2C(c2c(F)cccc2OC)=NC3)ccc1C(=O)O	DAPK3	kinase activity		1 µM		97%
Cc1cc(NC(=O)c2cccc(NC(=O)/C=C/CN(C)C)c2)ccc1Nc1nccc(-c2cccnc2)n1	MAPK8 (Homo sapiens, UniProt P45983)	enzyme activity, inhibitor		8.36e-05 µM, 0 h, unit not given, with: GSH 10 mM pre-incubation	reference: vehicle	1.04
O=C1NC(=O)/C(=C/c2ccc(-c3ccc(F)cc3O)o2)S1	MARK1 (Homo sapiens, UniProt Q9P0L2)	enzyme activity		10 µM		88%
CNc1ncc2c(/C=C/C(=O)N3CCC(OC)CC3)nn(Cc3cccc(C(F)(F)F)c3)c2n1	MKNK2 (Homo sapiens, UniProt Q9HBH9)	kinase activity, inhibitor		1 µM	reference: untreated control	111%
O=C(NC1CCC1)c1ccc2nc(-c3cccc(NS(=O)(=O)NCCN4CCCCC4)c3)cn2c1	NEK3 (Homo sapiens, UniProt P51956)	enzyme activity		10 µM		100%
c1cnc2ccc(Nc3nc(NC4CC4)c4nc[nH]c4n3)cc2c1	MAPK12 (Homo sapiens, UniProt P53778)	kinase activity, inhibitor, SelectScreen kinase profiling		1 µM	reference: control	89%
COc1ccc(F)cc1C(=O)NCc1ccc(-c2nn([C@@H](C)C(F)(F)F)c(N)c2C(N)=O)cc1	PEAK1 (Homo sapiens, UniProt Q9H792)	kinase activity, inhibitor, HotSpot radiometric		1000 nM, with: ATP at Km		95.4 ± 0.7%
Cc1cccc(C)c1C(=O)OCC(=O)[C@H](CCCCN)NC(=O)[C@H](CCCNC(=N)N)NC(=O)OCc1ccccc1	Procathepsin L (Mus musculus, UniProt P06797)	inhibitor		0.1 µM, room temperature, with: AMC substrate		100%

For quick reference, copied from above:
Structure (SMILES)	target	assay	test system	setting	how to read	remaining activity
C=CC(=O)N1CCC[C@@H](n2nc(-c3ccc(Oc4ccccc4)cc3)c3c(N)ncnc32)C1	FER (Homo sapiens, UniProt P16591)			10 µM		3.63%
COc1cc(F)ccc1-c1ncnc(Nc2cccc(C[S@](C)(=N)=O)c2)n1	DAPK3 (Homo sapiens, UniProt O43293)	kinase activity		10 µM, with: 10 µM ATP		102%
COc1ccc(-c2ccc3c(-c4ccccc4)cn(C)c3n2)cc1	gag-pol integrase	strand transfer	HIV-1	10 µM		60.7%
COc1cc(Nc2ncc3c(n2)-c2ccc(Cl)cc2C(c2c(F)cccc2OC)=NC3)ccc1C(=O)O	DAPK3	kinase activity		1 µM		97%
